Experimental data from different studies.
Parts stem from different laboratories: compare values within a part only. Changes are numbered by the printed parent chain.

Block 1
Target: Ras GTPase-activating protein-binding protein 1, full length (G3BP1, Homo sapiens, UniProt Q13283)
Sequence of UniProt Q13283 (whole entry, looked up): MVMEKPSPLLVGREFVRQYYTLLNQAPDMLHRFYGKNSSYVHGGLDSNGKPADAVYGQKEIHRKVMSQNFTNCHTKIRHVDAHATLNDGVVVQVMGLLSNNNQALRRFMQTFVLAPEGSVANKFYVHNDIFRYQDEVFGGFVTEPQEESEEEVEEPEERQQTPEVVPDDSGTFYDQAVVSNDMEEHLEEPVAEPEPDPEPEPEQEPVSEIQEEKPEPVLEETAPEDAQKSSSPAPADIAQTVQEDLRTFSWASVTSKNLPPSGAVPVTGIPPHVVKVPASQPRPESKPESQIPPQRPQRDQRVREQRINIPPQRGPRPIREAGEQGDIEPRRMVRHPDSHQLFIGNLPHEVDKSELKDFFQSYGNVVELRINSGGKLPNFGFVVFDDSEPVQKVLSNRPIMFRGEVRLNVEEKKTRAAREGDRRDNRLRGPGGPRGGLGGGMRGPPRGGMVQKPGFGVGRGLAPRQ
Method: RNA Bind-n-Seq
Form: RNA
Medium: in vitro
Concentration: 200 nM
Notes: whole 134-nt RNA, ends assumed
Added: 150 mM KCl
Baseline: input library
Direction: higher = stronger binding
Endpoint: log2 enrichment
All sequences stand within: GGGAGUUCUACAGUCCGACGAUC … UGGAAUUCUCGGGUGUCAAGG
UGGGCGGUGGAUUUUGUUUAUUUUUUUAGCUCAUUUCCAGGGGUGGGAAUUUUUUUUUAAUAUGUGUCAUGAAUAAAGUUGUUUUUGAAA: 0.394
ACCAUGCAGGUGGGCAUCUUUGUGAAGUGGGGCAAGGGGGGGAUAGGGAGGGGGGUAACACUUUGGGAACAGGUGGUCCCAGGUCGUUUC: 1.36
CAAGUCCUGUGCUACACAUCGUAUGUACCGAAUCGGGUUUGGGUUUGGUUUGGGGAAAGUAUUAUGUUACGCCGUUCGGAUCUGCACUUC: 0.172
GUCCUGUGCUACACAUCGUAUGUACCGAAUCGGGUUUUUUUGGGUUUUUUUGGGAGGGAAAGUAUUAUGUUACGCCGUUCGGAUCUGCAC: -0.186
ACCAUGCAGGUGGGCAUCUUUGGGAAGUGGGCCAAGGGGGGGAUAGGGAGGGGGGUAACACUUUGGGAACAGGUGGUCCCAGGUCGUUUC: 1.45
UGGCCCUGGUGGCAUGCGGGGAGGAAGAGGUGGCCUCAUGGAUCGUGGUGGUCCCGGUGUAAUGUUCAGAGGUGGCCGUGGUGGAGACAG: 0.091
GCAGGAAGUAAAAACAAAUGGAAAUGCGUCGGAUAGUGGCAGGGGUGGGGGUUGCUAAGGAAAGGGUGGGAUGGGAGUGGGUAAAGAGUU: 0.617
AGUCCUGUGCUACACAUCGUAUGUACCGAAUCGGGGAGGGGUGGGGUUUUUUUGGGGAAAGUAUUAUGUUACGCCGUUCGGAUCUGCACU: 0.536
ACCAUGCAGGUGGGCAUCUUUGGGAAGUGGGGCAAGGGGGGGAUAGGGAGGGGGGUAACACUUUGGGAACAUGUGGUCCCAGGUCGUUUC: 1.09
UCCUGUGCUACACAUCGUAUGUACCGAAUCGGUUUUUUGGGGUUUUUUGGUUUUUUGGGAAAGUAUUAUGUUACGCCGUUCGGAUCUGCA: -0.67
CCUGUGCUACACAUCGUAUGUACCGAAUCAAAGUGUGUGUGUGUAAAGUGUGUGUGUAAAAAAGUAUUAUGUUACGCCGUUCGGAUCUGC: -0.271
UGUGCUACACAUCGUAUGUACCGAAUCGGGCCCCCCCGGGGCCCCCCCGGGGCCCCCCCGGGAAAGUAUUAUGUUACGCCGUUCGGAUCU: -2.2
GCAGGAAGGAAAAACAAAUGGAAAUGCUUCGGAUAGUGGCAGGGGUGGGGGUUGCUAAGGAAAGGGUGGGAUGGGAGUGGGUAAAGAGUU: 1.62
AGUCCUGUGCUACACAUCGUAUGUACCGAAUCGGGCCCCGGCCCCGGGGCCCCGGGGAAAGUAUUAUGUUACGCCGUUCGGAUCUGCACU: -1.56

Block 2
Target: Centromere-binding protein 1, full length, N-terminal tag (CBF1, Saccharomyces cerevisiae, UniProt P17106, residues 1-351)
Sequence of UniProt P17106 (whole entry, looked up): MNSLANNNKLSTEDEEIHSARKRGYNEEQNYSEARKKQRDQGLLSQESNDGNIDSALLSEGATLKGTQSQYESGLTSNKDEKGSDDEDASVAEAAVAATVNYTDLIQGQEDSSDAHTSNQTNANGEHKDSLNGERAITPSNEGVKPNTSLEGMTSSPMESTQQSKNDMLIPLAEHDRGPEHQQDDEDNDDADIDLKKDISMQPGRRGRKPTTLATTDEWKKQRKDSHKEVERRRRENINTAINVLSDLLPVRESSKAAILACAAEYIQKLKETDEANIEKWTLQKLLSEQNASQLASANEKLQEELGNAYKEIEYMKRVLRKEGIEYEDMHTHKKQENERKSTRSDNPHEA
Method: protein-binding microarray
Form: double-stranded DNA, one strand shown
Medium: in vitro
Concentration: 0.8 µM
Notes: whole 60-bp probe, no competitor
Direction: higher = stronger binding
Endpoint: fluorescence intensity
All sequences stand within: … GTCTTGATTCGCTTGACGCTGCTG
GAATAGTTATTGTTGCTCGTGCAGTGATGTGCTTAG: 659 a.u.
CTAACGGTGTATAATCACGATCATATATCATATTTC: 579 a.u.
CTACCAATAGAGCCGCACATGTAATTACTGGTTTTC: 528 a.u.
CTAGAACCACTTGGTCAGGTGCGGTACGTAAAATTC: 1320 a.u.
CCTAACTACTATAGAAACGGTCAATAGCTTCGTACA: 528 a.u.
GAATACAGATGTTTTAGGGTGACATAAAATTGATAG: 553 a.u.
CTAATTATCAAATTTGATGATCACAACCAATGTTTC: 531 a.u.
TGTACGAAGCTATCTAAGGTGACTATAGTAGTTAGG: 502 a.u.
CTAATAATGCTACAGGAGACCATAAGTGATAACTTC: 513 a.u.
CTAAACTTTTAGTAGCACGTTTATTATTGCTTTTTC: 673 a.u.
CTAGGGGAAGGCACAGGAGATACCCCCACTAAATTC: 473 a.u.
CTAGTGTAAAAAGATCACATAAAGATTGAAAAATTC: 550 a.u.
CTATACAAAATGGGTCAACTGATCATAACTATTTTC: 651 a.u.
GAAACCACTTTGGTTACCGTGACATCCTGCGAATAG: 606 a.u.
GAACTATATATAGGTCATGTGACTACCGAAGAATAG: 17000 a.u.
GAAATGCAGAAAATGTACGTGATAGTTAAGCTTTAG: 601 a.u.
CTATTACCCCGTAACCACGAGTTGCGGTGTTTTTTC: 508 a.u.
GAATTTACGCCTGATCACCTTATATCTTCCGCTTAG: 609 a.u.
CTACTCCACAATGTTCACATGAGGGACAAGGTTTTC: 568 a.u.

Block 3
Target: CCNB3, cyclin fold, Cln2 fusion (human)
Method: yeast growth competition, sequencing
Medium: yeast
Notes: strong parent motif
Baseline: not given
Direction: higher = stronger binding
Endpoint: normalised enrichment score
Starting sequence: PKN2 docking peptide (human); VSAVRKLDFSDTM
V4M: 0.414
R5G: -0.182
A3W: 0.588
K6V: 1.57
S10Y: 1.03
R5H: 0.1
D8G: 0.128
L7H: 0.0552
S2H: 1.6
F9D: -0.127
R5D: 0.194
R5W: 0.163
F9S: -0.0704
K6I: 1.5
S2L: 1.4
S10D: 1.86

Block 4
Target: RNA binding protein fox-1 homolog 2, RRM domain, GST-SBP tag (RBFOX2, Homo sapiens, UniProt O43251-10, residues 100-194)
Method: RNA Bind-n-Seq
Form: RNA
Medium: in vitro
Concentration: 365 nM
Notes: natural RNA segment, single round, ends assumed
Baseline: no-protein control
Direction: higher = stronger binding
Endpoint: RBNS enrichment (R)
All sequences stand within: GGGAGUUCUACAGUCCGACGAUC … UGGAAUUCUCGGGUGCCAA
Construct (chain): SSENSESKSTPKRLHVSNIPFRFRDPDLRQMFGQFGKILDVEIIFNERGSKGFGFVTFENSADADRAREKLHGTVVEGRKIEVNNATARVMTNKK
CCCAACACACUUUUCCACCUGGGAGCCUGUGCCCUCAGACCGCCCCGCACCAGAGCCACGGGCUGUGGGGCGGGGAGCCCUCCCCCGCUGCAGCCCUCUCAGAACAGAGG: 0.256
ACCUUAUUUUUACUUGAAAUUUGCUAGAAGAAAUAGCAAACCGAAAUUUGUUUUAUGCAUGAGUUAAUACCACUGGCUCAGCAAAUACAAGUUAGUUUGCUUUAAGCAGG: 1.9
AAAAUGUAAAACACAUACAAAAGAAUUAAACCCACAAGCUGCCUCUGACAGCAGCCUGUGAGGGAGUGCAGAACACCUGGCCGGGUCACCCUGUGACCCUCUCACUUUGG: 0.261
GACUCUGUCCACCGGGGCCCUCCCAGGGCUGUGAGGACGGAAACAGGCAGGGAGUGGAGCUAACAGCUUAGUCACCAGGACCCCCAGACCUGCAAACGUCCCCUCCUGGA: 0.312
AAAAACUCGUUCGGAGAAAAGACAGCUUCUGCCUUCCCUACCAGGCGGACAGGGUACUCACUGUGCCGACGUGAGCAGACACAGCCAGAGGCUCAAGUGCCCUUGCCGAG: 0.251
CAUGGAAUAAAGGAAAGUUUACUCUUCUGAUUAUAAGCUGAGGAUGCUAUGUUGCAGUUUGUUUGCUUGUUUUUUUCUUCUGAGCUUUGUUUCUAGUACACGAUAUGACG: 1.48
AAUAUCCUUUCUCAUGGAAGUGCAUACCUGCGUGUGGAGAAGCUGAGGAGUGAAAACCAUGCAAGUAGAUGCUUACUGCCUUGACAUGGGAAUUACGGUUAUGACAGAAC: 0.275
GGAAGGGGAGGCAGGAGGCUGCUUAGUCUGCUGCCAUGAUGGGCCCCAUGAAUGGUGGCUCUCAAGCUUCUGUGCUACACAGGGGUGUGUGGUUGGGCGAGUGUCCUUGU: 1.04
AGCAAACAACCCCUGCCCGUGGGCCAAUCUACUUGAAGUUACUCGGACAAAGACCCCAAAGUGGGGCAACAACUCCAGAGAGGCUGUGGGAAUCUUCAGAACCCCCCUGU: 0.448
CCGUACCUACUAAUAUGCCUUAUUCUUCUUCACCUAGUGUUUUAAAAGUCCUGGGUAGAAAGAGUUUUAGAAAUGUAAUCAGUUGUUCAGCUUCAAUAAUAUAGAGAUCU: 0.417
UUUUUCAAAGACGAUCCUCCUCAAACACCCAUUUUUACAAUAUCUCUAUUGUAAAAUUUCAUUUUCACUAAGUAACACCCAGUAGAUAAUUCCUAUGGAGCAGUGGUGUU: 0.394
UGGCUCUGGGGAGAUUUCUAGUAACUCUUCAAUCUGUACUUUCUGUGCCCGCCUCGGUUUUGAGUUGCAUUUUUUUUUUCUGUUGUUAGACAAACCAGGGCUUUGUAUGC: 2.48

Repeated from above (block 3):
K6V: 1.57
F9S: -0.0704
R5G: -0.182
S2L: 1.4
K6I: 1.5
S10D: 1.86
A3W: 0.588
R5H: 0.1
